Measured values gathered from unrelated publications.
Parts stem from different laboratories: compare values within a part only. Substitutions count along the parent as printed.

Study 1
Target: RING finger protein unkempt homolog, zinc fingers 1-6, SBP tag (UNK, Homo sapiens, UniProt Q9C0B0, residues 30-357)
Chain of UniProt Q9C0B0 (30-357, looked up): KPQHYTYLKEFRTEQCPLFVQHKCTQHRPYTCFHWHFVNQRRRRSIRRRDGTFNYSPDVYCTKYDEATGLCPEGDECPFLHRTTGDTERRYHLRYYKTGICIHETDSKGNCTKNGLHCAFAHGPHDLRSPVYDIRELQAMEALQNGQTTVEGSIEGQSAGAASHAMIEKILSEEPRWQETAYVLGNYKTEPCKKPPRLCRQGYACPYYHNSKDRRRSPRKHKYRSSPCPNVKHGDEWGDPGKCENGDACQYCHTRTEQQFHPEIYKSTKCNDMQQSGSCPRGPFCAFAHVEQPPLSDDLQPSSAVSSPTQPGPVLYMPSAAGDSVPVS
Technique: RNA Bind-n-Seq
Form: RNA
Medium: in vitro
Concentration: 100 nM
Setting: RNA with constant flanks, vertebrate orthologous sites, ends assumed
Relative to: input RNA pool
Direction: higher = stronger binding
For `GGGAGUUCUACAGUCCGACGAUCACACCUAUAUUGUGGCAUUUAGUCAACACGGAAGUAGACCAGCUCUGCUGAUUUGAAAUUUAGAUUUUUUUAAUUAUGUACUGGGGACAGGUUUUUGUCGCUUUACAUUGCUUCCUAGUUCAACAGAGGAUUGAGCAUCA`, the bound/input enrichment was 5.08 ratio.
`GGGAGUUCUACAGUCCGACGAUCGGGACGCUUUGAUGUAAAGAUUGAAGUUAAGAGCUGAUCGCAAGCACAGAUCCUUCCCACUAGCCAUUUAAAACAGUUAAAGAUACAAAAACAAACACCUACUAGUCUUGAAUAAACUGUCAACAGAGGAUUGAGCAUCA` gave a bound/input enrichment of 2.48 ratio.
For `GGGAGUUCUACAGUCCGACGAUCCCUCUAAACCCCAUUUCUUCUGUUUCAUAGUGUAGAAGUAUUCUUUUUCAGUUAUAUUAUUAGUGGACUUGUUUUAAUUUUAGGGAAAAUUUCAGUACAGAUACUGUGAGCUUACAUGGACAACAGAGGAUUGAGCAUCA`, the bound/input enrichment was 1.31 ratio.
`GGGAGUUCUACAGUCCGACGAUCUGUACUAGUAUCCUACCAGCCUACCAACCUCUCGUCUGCACAGCUUCAGAUGUUACCGUCUAGCUAGAUUUUUAUUUAAAAUAUGAAAAACUGCUUUUCCCAAGACGUUUUUUAAAAAAACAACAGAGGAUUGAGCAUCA` has a bound/input enrichment of 1.16 ratio.
`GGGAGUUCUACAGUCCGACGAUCCCUACAAUAAUGAAAACCUACAGGAAUUUUUUUAUUUUUCAUUUUCCCCUUAGGCAUAUUUAGUAUUUUUUCCCCAGGCAGAUCAUUCUGAGUGUGCGAGUGUGUGUGCACAUGUUACAACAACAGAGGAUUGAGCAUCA` has a bound/input enrichment of 3.29 ratio.
For `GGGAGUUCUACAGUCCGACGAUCGUUGGGUCAUGACCCCUAUAGGUUAGGGCAUGAUGCUUACCGGUUAGGACAGGACCCCUAUAGGUUAGGCCAUGAUCCCUACAGACUAACUCCUGAUCCCUAUAGGAUGUCACCCAGACCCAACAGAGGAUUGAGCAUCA`, the bound/input enrichment was 0.525 ratio.
The bound/input enrichment of `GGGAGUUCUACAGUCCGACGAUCGGAAAGUUACAGACCAGACACUGAAAACAGGAGCACAGGAUCCUGGUUGUCGUCCUCUUUGAGGAACAGAUGUACACCUCUCUUCUCCAGAAGAAGAAGAGAAGGAAGAGAUGAAUCCACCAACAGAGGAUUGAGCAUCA` is reported as 0.33 ratio.
`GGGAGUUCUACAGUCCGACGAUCGAUUUGGACCUUGGAGCCGAACCAGGGAGCUAGCAAAAGUAAAGCAGACUUGUAAAAUUAUAGCCAUAUGCAGCUGCACAGCAACAGUACUACCACUAGCAGCUGUGUUAAAGUAUUUAUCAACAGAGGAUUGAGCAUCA` has a bound/input enrichment of 0.727 ratio.
The bound/input enrichment of `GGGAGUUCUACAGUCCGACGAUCAAUGAGCUGCUGGGGCAGGAAGAUGGGUUUCCUUUCACCCCUCUCAAGGAAAAACCCAAACUGAUUCCUUAACCAUCUAACUAGACUACCACAGGUUAGCUUUAUGUUUUGUUUUGCUUUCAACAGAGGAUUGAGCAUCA` is reported as 0.752 ratio.
For `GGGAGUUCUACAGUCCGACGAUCUCCCCGUUACCCCUAAGGUAGGACUUUUUAAAAAUUGUGUCGCCACCACUUCCAAAAAUUUAGCAAUAUUGGAAGAAAAUGCUAAUAAAGUAAAAAAAUUUGCUUGCUGUUUUGGAAACCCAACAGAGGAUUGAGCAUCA`, the bound/input enrichment was 0.421 ratio.
The bound/input enrichment of `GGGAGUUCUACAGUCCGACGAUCACCGUAGCGAGAGCCAAGCAGGUGGCAUUGUCUUUUUCUUUUGUAAAUGUAAAAAAUAAUUCGAUCCAGACUUUCCUUCUUUGAUUUUAAAAAUAAAAAUACCUCAGUGCUGUUUCCCAGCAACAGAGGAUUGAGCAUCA` is reported as 0.501 ratio.

Study 2
Target: CCND2, cyclin fold, Cln2 fusion (human)
Technique: yeast growth competition, sequencing
Medium: yeast
Setting: weak parent motif
Relative to: not given
Direction: higher = stronger binding
Parent: PKMYT1 docking peptide (human); SFEPRNLLSLFED; partner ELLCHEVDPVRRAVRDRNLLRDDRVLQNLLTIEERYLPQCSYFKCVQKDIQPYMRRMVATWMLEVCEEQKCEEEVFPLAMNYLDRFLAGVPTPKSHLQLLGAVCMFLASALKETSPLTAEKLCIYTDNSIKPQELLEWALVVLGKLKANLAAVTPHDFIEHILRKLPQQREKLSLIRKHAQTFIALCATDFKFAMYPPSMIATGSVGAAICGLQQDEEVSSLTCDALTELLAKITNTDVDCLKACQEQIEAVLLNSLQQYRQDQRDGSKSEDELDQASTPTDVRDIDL
Under “normalised enrichment score”, `L8Y` is recorded as 0.122.
`S1D` — result for “normalised enrichment score”: -0.0999.
For `E12W`, “normalised enrichment score” read -0.0457.
Under “normalised enrichment score”, `L7N` is recorded as -0.0235.
Under “normalised enrichment score”, `S9T` is recorded as 0.0725.
Under “normalised enrichment score”, `S9C` is recorded as -0.00505.
Under “normalised enrichment score”, `E3S` is recorded as -0.246.
`L10E` — result for “normalised enrichment score”: 0.0916.
For `N6V`, “normalised enrichment score” read -0.0756.
Under “normalised enrichment score”, `F11M` is recorded as 0.00361.
`F11V`: “normalised enrichment score” -0.146.
`R5K F11L`: “normalised enrichment score” -0.143.
`F2R`: “normalised enrichment score” 0.175.
`L10T`: “normalised enrichment score” 0.124.
For `L7W`, “normalised enrichment score” read 0.144.
For `F11E`, “normalised enrichment score” read 0.00574.
`E12I` — result for “normalised enrichment score”: 0.434.
For `L8C`, “normalised enrichment score” read -0.114.
For `L10I`, “normalised enrichment score” read 0.192.
`E12T`: “normalised enrichment score” -0.234.
Under “normalised enrichment score”, `E12D` is recorded as 0.0829.

Study 3
Target: Interferon regulatory factor 5, full length, phosphomimetic (IRF5, Homo sapiens, UniProt Q13568-2, residues 1-514, S451D/S453D/S456D/S462D)
Technique: protein-binding microarray
Form: double-stranded DNA, one strand shown
Medium: in vitro
Concentration: 940 nM top
Setting: 60-bp whole probe
With: salmon DNA 0.4 mg/ml
Relative to: random background probes
Direction: higher = stronger binding
Shared flanks, not repeated: GCCTAGCAC … GTCTTGATTCGCTTGACGCTGCTG
For `TTAGGACTGGGGGCTGGGTTAGTGCTA`, “fitted relative affinity” read 1.56 z-score.
For `TCACTTCTCCCTTTCAGTTTGTGCTAG`, “fitted relative affinity” read 1.46 z-score.
Under “fitted relative affinity”, `TCCTCTTTCTCTGCTACCCTCGTGCTA` is recorded as 2.23 z-score.
`TTAGGTTTCGGGCTTCGGTTAGTGCTA`: “fitted relative affinity” 8.13 z-score.
`GACGAACTGAGACTGGCGACGTGCTAG`: “fitted relative affinity” -0.501 z-score.
Under “fitted relative affinity”, `TTAGGTCTCGGCATCGGTTAGTGCTAG` is recorded as 1.79 z-score.
Under “fitted relative affinity”, `GAGACTCTAATATTGAGACTGTGCTAG` is recorded as 0.586 z-score.
`TCAATTTTCAGAATTTAACTGTGCTAG`: “fitted relative affinity” 0.345 z-score.
Under “fitted relative affinity”, `TTAGGACTGGGTTATCGGTTAGTGCTA` is recorded as -0.077 z-score.
Under “fitted relative affinity”, `GACGAACTTGGGTATCGAGACGTGCTA` is recorded as 1.1 z-score.
Under “fitted relative affinity”, `CACGATCTCAGTCTCGAGACGTGCTAG` is recorded as 1.78 z-score.
`TTAGCTATCGGGTTTCGGTTAGTGCTA`: “fitted relative affinity” 5.93 z-score.
`TCATGTTGCAAATATTGCACTGTGCTA`: “fitted relative affinity” -0.359 z-score.
Under “fitted relative affinity”, `GACGGTCTCGCTATCGGGACGTGCTAG` is recorded as 1.27 z-score.
`TTAGGACTGGTACTGGGTTAGTGCTAG` — result for “fitted relative affinity”: -0.644 z-score.
`TCAGCTTTATGTGTAGGACTGTGCTAG`: “fitted relative affinity” 0.115 z-score.
For `TCAAGTTTCTCCTTTCCACTGTGCTAG`, “fitted relative affinity” read 3.39 z-score.
For `GACGGTTACGGACTGGGGACGTGCTAG`, “fitted relative affinity” read -0.403 z-score.
`TTAGATTTCAGTTCCGAATAGTGCTAG` — result for “fitted relative affinity”: 0.819 z-score.
`TGTGTTTTAAATAGGGCAAAGTGCTAG`: “fitted relative affinity” -0.183 z-score.
`GACGGTTTCTTTTTCCTGACGTGCTAG` — result for “fitted relative affinity”: 3.21 z-score.
`TTAGGACTGGGTTTCGATTAGTGCTAG`: “fitted relative affinity” 6.13 z-score.
Under “fitted relative affinity”, `TTAGGTTTCGGTATCGGTTCGTGCTAG` is recorded as 15.7 z-score.

Study 4
Target: Fragile X messenger ribonucleoprotein 1, C-terminal low-complexity region (Fmr1, Mus musculus, UniProt P35922)
Technique: RNA Bind-n-Seq
Form: RNA
Medium: in vitro
Concentration: 200 nM
Setting: whole 134-nt RNA, ends assumed
With: 150 mM LiCl
Relative to: input library
Direction: higher = stronger binding
All molecules: 7-deaza-guanosine replaces G
`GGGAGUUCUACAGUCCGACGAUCUGGGAGGUGGAUUUUGUUUAUUUUUUUAGCUCAUUUCCAGGGGUGGGAAUUUUUUUUUAAUAUGUGUCAUGAAUAAAGUUGUUUAUGAAAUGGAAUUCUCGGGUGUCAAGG` gave a log2 enrichment of -0.271.
With `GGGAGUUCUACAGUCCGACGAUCAAGUCCUGUGCUACACAUCGUAUGUACCGAAUCGGUGGUUUUUUUGGUUUUUUUGGAAAGUAUUAUGUUACGCCGUUCGGAUCUGCACUUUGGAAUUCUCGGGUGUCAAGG` the log2 enrichment was -1.46.
`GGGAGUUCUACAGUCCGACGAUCUUCAACAACUAGUACUGCUUCAAAUUAUCCAGAUGUGUUAACAAGGCCUUCUCUUCAUCGGAGCCAUCUGAAUUUUUCCAUGUUGGAAUCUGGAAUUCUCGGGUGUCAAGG` gave a log2 enrichment of 1.09.
`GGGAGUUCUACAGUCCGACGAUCUCCUCAAGUCCUGUGCUACACAUCGUAUGUACCGAAUCGGUGGAAAGGUGGAAAGUAUUAUGUUACGCCGUUCGGAUCUGCACUUCCAGCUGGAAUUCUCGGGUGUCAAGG` has a log2 enrichment of 0.1.
`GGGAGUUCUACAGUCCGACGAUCUGUCUGCGGACCUGGUUUCAGCGCUGGUGGGACUGCAGCCGGAGGUCAGCCCAGCAGAGACUGCAGCUGGAGAGGGCAGUGCAACACCACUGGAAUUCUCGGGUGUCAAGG` has a log2 enrichment of -0.938.
`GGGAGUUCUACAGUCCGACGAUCGUCCUGUGCUACACAUCGUAUGUACCGAAUCGGGAAAAAAAGGGUUUUUUUGGGAGGGAAAGUAUUAUGUUACGCCGUUCGGAUCUGCACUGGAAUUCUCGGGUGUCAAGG` has a log2 enrichment of -1.8.
With `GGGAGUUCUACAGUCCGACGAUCUGGGAGGUGGAUUUUGUUUAUUUUUUUAGCUCAUUUCCAGGGGUUGGAAUUUUUUUUUAAUAUGUGUCAUGAAUAAAGUUGUUUUUGAAAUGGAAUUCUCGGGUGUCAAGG` the log2 enrichment was -1.2.
The log2 enrichment of `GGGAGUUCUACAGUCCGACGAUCCACAGACAACACGCACCCACACAGACACAGAGGGAAGCGGUUGGGAUGGGGACAGGGUGCACAGCAGGGCGGGGUAGGACCCCAGCCCCUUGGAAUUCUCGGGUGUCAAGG` is reported as -1.53.
With `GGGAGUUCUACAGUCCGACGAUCCUGUGCUACACAUCGUAUGUACCGAAUCGGGGAAAAAGGGGUUUUUGGGGUUUUUUUGGGGAAAGUAUUAUGUUACGCCGUUCGGAUCUGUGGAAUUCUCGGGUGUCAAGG` the log2 enrichment was -1.24.
The log2 enrichment of `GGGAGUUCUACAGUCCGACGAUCCAAGUCCUGUGCUACACAUCGUAUGUACCGAAUCGGGAAAAAGGGAGGGAAAGGGAAAGUAUUAUGUUACGCCGUUCGGAUCUGCACUUCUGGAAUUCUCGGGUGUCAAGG` is reported as -0.538.
`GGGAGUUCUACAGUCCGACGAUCAGUCCUGUGCUACACAUCGUAUGUACCGAAUCGGUUUUUGGUUUUUGGGUUUUUGGGGAAAGUAUUAUGUUACGCCGUUCGGAUCUGCACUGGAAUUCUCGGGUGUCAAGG` has a log2 enrichment of -0.866.

Repeated from above (study 3):
`TTAGGACTGGTACTGGGTTAGTGCTAG` — result for “fitted relative affinity”: -0.644 z-score.
`GACGAACTGAGACTGGCGACGTGCTAG`: “fitted relative affinity” -0.501 z-score.
`TCAATTTTCAGAATTTAACTGTGCTAG`: “fitted relative affinity” 0.345 z-score.
For `TTAGGACTGGGGGCTGGGTTAGTGCTA`, “fitted relative affinity” read 1.56 z-score.
For `TCACTTCTCCCTTTCAGTTTGTGCTAG`, “fitted relative affinity” read 1.46 z-score.
`GACGGTTTCTTTTTCCTGACGTGCTAG` — result for “fitted relative affinity”: 3.21 z-score.
Under “fitted relative affinity”, `TTAGGACTGGGTTATCGGTTAGTGCTA` is recorded as -0.077 z-score.
Under “fitted relative affinity”, `CACGATCTCAGTCTCGAGACGTGCTAG` is recorded as 1.78 z-score.
`TTAGCTATCGGGTTTCGGTTAGTGCTA`: “fitted relative affinity” 5.93 z-score.
